{"data": "Assay results gathered from unrelated publications", "note": "Compare with care: the assays were run in different laboratories. ± marks the error that the study gave."}
{"SMILES": "Cn1cnc(Cn2c(=O)[nH]/c(=N\\c3cc4cn(C)nc4cc3Cl)n(Cc3cc(F)c(F)cc3F)c2=O)n1", "organism": "canine coronavirus", "assay": "viral replication, qRT-PCR", "test system": "CRFK", "setting": "48 h", "IC50": "58.3 µM"}
{"SMILES": "CCOP(=O)(CCOCn1cnc(C#N)c1C#N)OCC", "organism": "Mammarenavirus lassaense", "assay": "viral replication, inhibitor", "test system": "Vero", "setting": "48 h", "IC50": "8 µg/mL"}
{"SMILES": "CN1CCN(C(=O)N[C@@H](Cc2ccccc2)C(=O)N[C@H](/C=C/S(=O)(=O)c2ccccc2)CCc2ccccc2)CC1", "organism": "Tai Forest ebolavirus", "assay": "viral entry", "test system": "HEK-293T", "setting": "pseudovirus", "IC50": "0.00226 ± 0.0001 µM"}
{"SMILES": "COc1cc2c(cc1O)CCN[C@]21CS[C@@H]2c3c(OC(C)=O)c(C)c4c(c3[C@H](COC1=O)N1[C@@H]2[C@H]2c3c(cc(C)c(OC)c3O)C[C@@H]([C@@H]1C#N)N2C)OCO4", "organism": "SARS-CoV-2 BA.1", "assay": "viral replication, RT-qPCR of viral RNA", "test system": "Calu-3", "IC50": "0.0101 µM"}
{"SMILES": "C[C@]12C=CC(=O)C=C1CC[C@@H]1[C@@H]2[C@@H](O)C[C@@]2(C)[C@H]1C[C@H]1OC(c3ccccc3Cl)O[C@]12C(=O)CO (some centres unmarked)", "organism": "Severe acute respiratory syndrome coronavirus 2", "assay": "viral replication, inhibitor", "test system": "VeroE6/TMPRSS2", "setting": "24 h", "IC50": "9.1 µM"}
{"SMILES": "CCOP(=O)(COCCn1cnc(C#N)c1C#N)OCC", "organism": "Mammarenavirus lassaense", "assay": "viral replication, inhibitor", "test system": "Vero", "setting": "48 h", "IC50": "13 µg/mL"}
{"SMILES": "CC(=O)[C@]1(O)Cc2c(O)c3c(c(O)c2[C@@H](O[C@H]2C[C@H](N)[C@H](O)[C@H](C)O2)C1)C(=O)c1ccccc1C3=O", "organism": "SARS-CoV-2 NLuc reporter", "assay": "viral replication", "test system": "Calu-3", "setting": "16 h compound pretreatment", "IC50": "0.006 µM"}
{"SMILES": "N#Cc1ncn(COCCO)c1C#N", "organism": "Mammarenavirus lassaense", "assay": "viral replication, inhibitor", "test system": "Vero", "setting": "48 h", "IC50": "32 µg/mL"}
{"SMILES": "O=C(O)CC1C2CCCN3CCCC(CN1S(=O)(=O)c1ccc(Cl)cc1)C23 (centres unmarked)", "organism": "Ebola virus", "assay": "viral entry", "setting": "EBOV GP pseudotyped HIV", "IC50": "> 200 µM"}
{"SMILES": "COC(=O)c1ncn(C2CC(O)C(CO)O2)c1C(=O)OC (centres unmarked)", "organism": "Zaire ebolavirus", "assay": "viral replication, inhibitor", "test system": "Vero", "setting": "72 h", "IC50": "32 µg/mL"}
{"SMILES": "O=C(O)CC1C2CCCN3CCCC(CN1CCc1ccc(Cl)c(Cl)c1)C23 (centres unmarked)", "organism": "Ebola virus", "assay": "viral entry", "setting": "EBOV GP pseudotyped HIV", "IC50": "> 200 µM"}
{"SMILES": "COc1cc(-c2oc3cc(O[C@@H]4O[C@@H](C)[C@H](O)[C@@H](O)[C@H]4O)cc(O)c3c(=O)c2O[C@@H]2O[C@H](CO[C@@H]3O[C@@H](C)[C@H](O)[C@@H](O)[C@H]3O)[C@@H](O)[C@H](OC(C)=O)[C@H]2O)ccc1O", "organism": "influenza A virus", "assay": "hemagglutination", "test system": "A/Tern/South Africa/1/61 (H5N3)", "IC50": "27.3 ± 0.63 µM"}
{"SMILES": "Cc1cn([C@@H]2O[C@@H](C)[C@H](OCc3ccccc3)[C@@H](OCc3ccccc3)[C@H]2I)c(=O)[nH]c1=O", "organism": "Japanese encephalitis virus", "assay": "viral replication, inhibitor, ELISA", "test system": "Vero", "IC50": "3.6 µM"}
{"SMILES": "O=[N+]([O-])c1ccc(-n2nc(-c3ccc(F)cc3)cc2-c2ccc(F)cc2)c([N+](=O)[O-])c1", "organism": "Japanese encephalitis virus", "assay": "plaque formation", "test system": "N2a", "setting": "72 h", "IC50": "< 1 µM"}
{"SMILES": "NC(=O)c1ncn(C2OC(CO)C(O)C2O)c1C(N)=O (centres unmarked)", "organism": "Mammarenavirus lassaense", "assay": "viral replication, inhibitor", "test system": "Vero", "setting": "48 h", "IC50": "10 µg/mL"}
{"SMILES": "CCCC1O[C@@H]2C[C@H]3[C@@H]4CCC5=CC(=O)C=C[C@]5(C)[C@H]4[C@@H](O)C[C@]3(C)[C@]2(C(=O)CO)O1 (some centres unmarked)", "organism": "Severe acute respiratory syndrome coronavirus 2", "assay": "viral replication, inhibitor", "test system": "VeroE6/TMPRSS2", "setting": "24 h", "IC50": "> 30 µM"}
{"SMILES": "COc1cc(-c2oc3cc(O)cc(O)c3c(=O)c2O[C@@H]2O[C@H](CO)[C@@H](O)[C@H](O)[C@H]2OC(=O)c2cc(O)c(O)c(O)c2)ccc1O", "organism": "influenza A virus", "assay": "hemagglutination", "test system": "A/Tern/South Africa/1/61 (H5N3)", "IC50": "191.3 ± 1.54 µM"}
{"SMILES": "COc1ccc(CN2CCN(c3nc(C)ccc3C(=O)OC(C)C)CC2)cc1Cl", "organism": "Mycobacterium tuberculosis", "assay": "resazurin", "test system": "rel knockout", "setting": "168 h, nutrient-starved", "IC50": "32 µM"}
{"SMILES": "O=c1[nH]c(=O)n([C@@H]2O[C@H](COCc3ccccc3)[C@@H](OCc3ccccc3)[C@H](OCc3ccccc3)[C@H]2I)cc1Cl", "organism": "Japanese encephalitis virus", "assay": "viral replication, inhibitor, ELISA", "test system": "Vero", "IC50": "6.41 µM"}
{"SMILES": "C[C@@H]1CCCN1CCc1cc2cc(-c3ccc(C#N)cc3)ccc2o1", "organism": "Naegleria fowleri", "assay": "alamarBlue", "test system": "ATCC 30215", "setting": "48 h, trophozoites", "IC50": "3.05 ± 0.2 µM"}
{"SMILES": "COC(=O)c1ncn(CCOC(C)=O)c1C(=O)OC", "organism": "Mammarenavirus lassaense", "assay": "viral replication, inhibitor", "test system": "Vero", "setting": "48 h", "IC50": "21 µg/mL"}
{"SMILES": "C(=N\\Cc1cc(C/N=C/c2ccc[nH]2)cc(-c2cc(C/N=C/c3ccc[nH]3)cc(C/N=C/c3ccc[nH]3)c2)c1)/c1ccc[nH]1", "organism": "Middle East respiratory syndrome-related coronavirus", "assay": "viral replication", "IC50": "~20 µM"}
{"SMILES": "COC(=O)CC1C2CCCN3CCCC(CN1C(=O)c1ccc(Cl)cc1)C23 (centres unmarked)", "organism": "Ebola virus", "assay": "viral entry", "setting": "EBOV GP pseudotyped HIV", "IC50": "88.2 µM"}
{"SMILES": "COC(=O)c1ncn(CCO)c1C(=O)OC", "organism": "Severe acute respiratory syndrome coronavirus", "assay": "viral replication", "test system": "Vero", "setting": "48 h", "IC50": "28 µg/mL"}
{"SMILES": "CC[C@@]1(O)C[C@H](O[C@H]2C[C@H](N(C)C)[C@H](O[C@H]3C[C@H](O)[C@H](O[C@H]4CCC(=O)[C@H](C)O4)[C@H](C)O3)[C@H](C)O2)c2c(cc3c(c2O)C(=O)c2c(O)cccc2C3=O)[C@H]1C(=O)OC", "organism": "SARS-CoV-2 BA.1", "assay": "viral replication, RT-qPCR of viral RNA", "test system": "Calu-3", "IC50": "0.18 µM"}
{"SMILES": "CC[C@H](C)[C@H](NC(=O)[C@@H](NC(=O)[C@H](CCC(N)=O)NC(=O)[C@@H](N)CO)C(C)C)C(=O)N[C@@H](CO)C(=O)N[C@@H](CC(N)=O)C(=O)N1CCC[C@H]1C(=O)N[C@@H](Cc1ccc(O)cc1)C(=O)N[C@@H](Cc1ccc(O)cc1)C(=O)N1CCC[C@H]1C(=O)N[C@@H](Cc1ccccc1)C(=O)N[C@@H](Cc1ccc(O)cc1)C(=O)N[C@@H](Cc1ccc(O)cc1)C(=O)N[C@@H](CO)C(=O)O", "organism": "Marburg virus", "assay": "pseudovirus infection", "setting": "pseudotyped virus", "IC50": "69.4 µM"}
{"SMILES": "COCCOCCOCC1O[C@@H]2C[C@H]3[C@@H]4CCC5=CC(=O)C=C[C@]5(C)[C@H]4[C@@H](O)C[C@]3(C)[C@]2(C(=O)CO)O1 (some centres unmarked)", "organism": "Severe acute respiratory syndrome coronavirus 2", "assay": "viral replication, inhibitor", "test system": "VeroE6/TMPRSS2", "setting": "24 h", "IC50": "> 30 µM"}
{"SMILES": "COC(=O)c1ncn(C2OC(COC(C)=O)C(OC(C)=O)C2OC(C)=O)c1C(=O)OC (centres unmarked)", "organism": "Mammarenavirus lassaense", "assay": "viral replication, inhibitor", "test system": "Vero", "setting": "48 h", "IC50": "12 µg/mL"}
{"SMILES": "NCCCC[C@H](N)C(=O)NCC(=O)N[C@@H](CC(=O)O)C(=O)N[C@@H](CC(=O)O)C(=O)N[C@@H](Cc1ccccc1)C(=O)N[C@@H](Cc1ccccc1)C(=O)N1CCC[C@H]1C(=O)N[C@@H](Cc1ccc(O)cc1)C(=O)N[C@@H](Cc1ccc(O)cc1)C(=O)N[C@@H](Cc1c[nH]cn1)C(=O)N[C@@H](CO)C(=O)O", "organism": "Marburg virus", "assay": "pseudovirus infection", "setting": "pseudotyped virus", "IC50": "> 80 µM"}
{"note": "Repeated from above:"}
{"SMILES": "NC(=O)c1ncn(C2OC(CO)C(O)C2O)c1C(N)=O (centres unmarked)", "organism": "Mammarenavirus lassaense", "assay": "viral replication, inhibitor", "test system": "Vero", "setting": "48 h", "IC50": "10 µg/mL"}
{"SMILES": "COC(=O)c1ncn(CCO)c1C(=O)OC", "organism": "Severe acute respiratory syndrome coronavirus", "assay": "viral replication", "test system": "Vero", "setting": "48 h", "IC50": "28 µg/mL"}
